# Results collected from several papers.
# Protocols differ between the studies behind these lines. ± gives the spread as reported.
Structure (SMILES),assay,test system,conditions,how to read,quantity,value
CCOC(=O)CN1CCN(CC(=O)OCC)CCN(Cc2cc(-c3nc4ccccc4s3)cc(OC)c2O)CC1,UV-Vis pH titration,,"25 °C, ionic strength 0.1 M NaCl",,pKa2,7.41
NCCCC(=O)OCC(=O)c1ccc(O)cc1F.O=C(O)C(F)(F)F,"photolysis, measured: rearranged acid appearance",aqueous HEPES buffer with LiClO4,pH 7.3,,quantum yield,0.19
C[C@H](NC(=O)COC(=O)[C@H](C)NC(=O)CO)C(=O)O,,water,"pH 4, 37 °C",,depolymerization half-life,62.6 h
CCCC1OC2CC3C4CCC5=CC(=O)C=CC5(C)C4C(O)CC3(C)C2(C(=O)COC(=O)CN(C)C)O1 (stereo not shown),,diluted rat plasma,"200 µg/mL, 37 °C, 5.7-fold dilution, 2% DMSO",,time to rapid hydrolysis,≤ 6 h
CCCC[C@@H]1NC(=O)[C@@H](NC(=O)[C@H](CCC(=O)O)NC(=O)CNC(=O)CN2CCN(CC(=O)O)CCN(CC(=O)O)CCN(CC(=O)O)CC2)CCCCNC(=O)C[C@@H](C(N)=O)NC(=O)[C@H](C(C)C)NC(=O)[C@@H]2CCCN2C(=O)[C@H](CCCNC(=N)N)NC(=O)CNC(=O)[C@H](Cc2c[nH]c3ccccc23)NC(=O)[C@H](CCCNC(=N)N)NC(=O)[C@@H](Cc2ccccc2)NC(=O)[C@H](Cc2c[nH]cn2)NC(=O)[C@H](CCC(=O)O)NC1=O [gallium-67 labelled],,C57 mice with B16/F1 melanoma,"intravenous, 0.037 MBq/mouse, 0.5 h",relative to: tumour over kidney,tumour to kidney ratio,0.36
NS(=O)(=O)c1ccc(N2N=C(C(F)(F)F)CC2c2ccc(F)cc2F)cc1 (stereo not shown),,"male beagle dog, liver microsomes","20 µM, pH 7.4",relative to: human over dog,elimination rate ratio,8.6 fold
NCCCC(=O)OCC(=O)c1cc(F)c(O)c(F)c1.O=C(O)C(F)(F)F,"photolysis, measured: GABA appearance",aqueous HEPES buffer with LiClO4,pH 8.2,,quantum yield,0.02
CC(C)C[C@@H](NC(=O)[C@H](NC(=O)[C@H]1CCCN1)[C@H](C)O)C(=O)N[C@H](Cc1c[nH]cn1)C(=O)N[C@@H](C(=O)N[C@H](Cc1c[nH]cn1)C(=O)N[C@H](CC(N)=O)C(=O)N[C@H](CCCNC(=N)N)C(=O)N[C@H](CCCNC(=N)N)C(=O)N[C@H](CCCNC(=N)N)C(=O)N[C@H](CCCNC(=N)N)C(=O)N[C@H](CCCNC(=N)N)C(N)=O)[C@H](C)O,,"beagle dog, plasma","oral, 50 mg/kg, single dose",,half-life,77 h
CCN(CC)c1ccc2c(-c3ccccc3C(=O)OCCOCCOCC[18F])c3ccc(=[N+](CC)CC)cc-3oc2c1,,"rat, bone",1 h,,tracer uptake,0.38 %ID/g
CCCCCCc1ccc(Oc2ccccc2C#N)c(O)c1,,"CD-1 mice, plasma","subcutaneous, 100 mg/kg",,clearance,123 mL/min/kg
NC[C@@H](C(=O)Nc1ccc(-c2cn[nH]c2)cc1)c1ccccc1,OECD 405 eye irritation,"New Zealand White rabbit, eye","topical, 0.1%, 96 h (day 5), scale 0 to 3",direction not given,conjunctival redness score,0
O=C(NC1CCCCC1)C(c1ccccn1)N(C(=O)CCl)c1cccc(F)c1 (racemic),HPLC-MS,DPBS,"6 h, 37 °C",,conversion to pyridinium salt,~85%
Cc1nc(C)c(C=[N+]([O-])C(C)(C)C)nc1C,,"healthy human, both sexes, serum","oral, 1200 mg twice daily, 7 days",,AUC(0-tau),81300 ng·h/mL
O=C([O-])CN1CCN(CC(=O)[O-])CCN(CC(=O)NC[C@H]2CC[C@H](C(=O)N[C@H](Cc3cnc4ccccc4c3)C(=O)NCCCC[C@H](NC(=O)N[C@@H](CCC(=O)O)C(=O)O)C(=O)O)CC2)CCN(CC(=O)[O-])CC1.[64Cu+2],PET/CT dosimetry OLINDA/EXM,"healthy volunteers, spleen",up to 24 h post-injection,,absorbed dose,0.0448 mGy/MBq
CN1CCC[C@]1(C)/C=C/S(=O)(=O)NC(=O)Nc1c2c(cc3c1CCC3)CCC2,,"human, urine","oral, 250 mg single dose",,percent of dose in urine,69.1%
CN(O)C(=O)CCC(=O)NCCCN(CCCCN(CCCNC(=O)CCC(=O)N(C)O)C(=O)CCC(=O)N(C)O)C(=O)CCC(=O)N(C)O.[89Zr],,"mouse, liver",4 h,,tracer uptake,0.08 %ID/g
NCCCC(=O)OCC(=O)c1c(F)cc(O)cc1F.O=C(O)C(F)(F)F,"photolysis, measured: GABA appearance",unbuffered water,,,quantum yield,0.16
Cc1ccccc1/N=N/c1ccc(/N=N/c2c(O)ccc3ccccc23)c(C)c1,,rat whole blood extract,"0.2 µg/L, 30 days, -20 °C, long-term storage",,stability deviation,-5.5%
CCc1cc(Nc2nc(-c3ccc(-n4cnc(C)c4)c(F)c3)cs2)c(C)cc1C,,"human, both sexes, plasma","oral, 200 mg once daily, day 14, multiple dose, geometric mean",,terminal elimination rate constant,2.22e-05 s⁻¹
COc1ccnc(C[S+]([O-])c2nc3cc(-n4cccc4)ccc3[nH]2)c1C (stereo not shown),,"male Sprague Dawley rats, plasma","oral, 5 mg/kg ilaprazole racemate",relative to: compound over R-ilaprazole,Cmax ratio,1.79
CC(C)[C@H](NC(=O)[C@@H]1CCCN1C(=O)[C@H](CCCNC(=N)N)NC(=O)[C@H](CS)NC(=O)[C@H](Cc1c[nH]c2ccccc12)NC(=O)[C@H](CCCNC(=N)N)NC(=O)[C@@H](Cc1ccccc1)NC(=O)[C@H](Cc1c[nH]cn1)NC(=O)[C@H](CCC(=O)O)NC(=O)[C@H](CS)NC(=O)[C@H](CS)NC(=O)[C@@H]1CC(=O)N[C@@H](CCCNC(=N)N)C(=O)NCC(=O)N[C@@H](CC(=O)O)C(=O)N[C@H](Cc2ccc(O)cc2)C(=O)N1)C(N)=O [technetium-99m labelled],,"C57 mouse, female, B16/F1 melanoma","intravenous, 0.037 MBq, 0.5 h",relative to: tumour over lung,tumour to tissue ratio,1.15
CC(C)(C)NCC(SS(=O)(=O)O)c1ccccc1 (stereo not shown),,mouse hepatocytes,unit not given,relative to: hepatocyte over total microsomal clearance,hepatocyte over microsomal clearance,> 20
CCCCCCCCCCCCCCCCCC(=O)N[C@@H](CCCCN)C(=O)N[C@@H](CCCCN)C(=O)N[C@@H](CCCCN)C(=O)N[C@@H](CCCCN)C(=O)N[C@@H](CCCCN)C(N)=O,dynamic light scattering,self-assembled micelles,25 °C,,hydrodynamic radius,~166 nm
CCCC[C@H](NC(=O)CNC(=O)CNC(=O)CN1CCN(CC(=O)O)CCN(CC(=O)O)CC1)C(=O)N[C@H]1CC(=O)NCCCC[C@@H](C(N)=O)NC(=O)[C@H](Cc2c[nH]c3ccccc23)NC(=O)[C@H](CCCNC(=N)N)NC(=O)[C@@H](Cc2ccccc2)NC(=O)[C@H](Cc2c[nH]cn2)NC1=O [copper-64 labelled],,"female C57 mouse, B16/F1 melanoma","intravenous, 0.037 MBq, 2 h",relative to: tumour over heart,uptake ratio,51.6
CC(C)[C@H](NC(=O)[C@@H]1CCCN1C(=O)[C@H](CCCNC(=N)N)NC(=O)[C@H](CS)NC(=O)[C@H](Cc1c[nH]c2ccccc12)NC(=O)[C@H](CCCNC(=N)N)NC(=O)[C@@H](Cc1ccccc1)NC(=O)[C@H](Cc1c[nH]cn1)NC(=O)[C@H](CCC(=O)O)NC(=O)[C@H](CS)NC(=O)[C@H](CS)NC(=O)CNC(=O)[C@@H]1CC(=O)N[C@@H](CCCNC(=N)N)C(=O)NCC(=O)N[C@@H](CC(=O)O)C(=O)N[C@H](Cc2ccc(O)cc2)C(=O)N1)C(N)=O [technetium-99m labelled],,"C57 mouse, female, B16/F1 melanoma","intravenous, 0.037 MBq, 24 h",relative to: tumour over muscle,tumour to tissue ratio,18.5
Oc1ccc2ccccc2c1/N=N/c1ccc(/N=N/c2ccccc2)cc1,,rat whole blood QC samples,"5.0 µg/L, 4 h, room temperature, short-term stability",,measured concentration,5.13 µg/L
COc1cc(NC(C)=O)c2c(c1O)-c1c(OC)c(OC)cc3c1C(C2)N(C)CC3 (stereo not shown),,rat kidney homogenate,"100 µg/mL, time not given, three freeze-thaw cycles",,remaining compound,97.1 ± 2.2%
Oc1cccc(-c2cccc(O)n2)n1.[Cl-].[Cl-].[Ru+2].c1cnc2c(c1)ccc1cccnc12.c1cnc2c(c1)ccc1cccnc12,shake flask,octanol/phosphate buffer,pH 7.40,,logD,1.63
Cc1ccc(C(C)C)cc1.O=C(N=P(c1ccccc1)(c1ccccc1)c1ccccc1)c1ccccn1.[Cl-].[Cl-].[Ru+2],,"NOD scid mice, kidney","dose not given, end of efficacy study",,ruthenium level,< 5 µg/g
Cc1ccc(-c2ccc(-c3cc4sccc4o3)cn2)nc1,,acetonitrile,zinc complex,,emission maximum,505 nm
CCCCCCCCCCCCCCCCCC(=O)Nc1ccn(C2OC(CO)C(O)C2(F)F)c(=O)n1 (stereo not shown),,"athymic nude mouse, female, BxPC-3 xenograft, plasma","intravenous, 25 mg/kg gemcitabine equivalent",,total clearance,26.7 ± 2.3 mL/min/kg
CC(C)(O)c1ncc([S@](N)(=O)=NC(=O)Nc2c3c(cc4c2CCC4)CCC3)s1,,healthy human,"oral, 100 mg once daily, day 14, spray-dried dispersion, geometric mean",,AUC(0-tau),96700 ng·h/mL
COc1cc(OC)cc(C2=C3C(C)=C(I)C(C)=[N+]3[B-](F)(F)n3c(/C=C/c4cccs4)c(I)c(C)c32)c1,,dichloromethane,,,emission maximum,610 nm
Cn1c(=O)oc2ccc(-c3ccc(CC(C#N)NC(=O)C4CNCCCO4)c(F)c3)cc21 (stereo not shown),,human,"oral, 40 mg once daily, TEAE, multiple ascending dose",,abdominal pain incidence,0%
C=C(C)C(=O)NCCCCCC(=O)N[C@@H](Cc1ccccc1)C(=O)N[C@@H](CCCCN)C(=O)N[C@@H](Cc1ccccc1)C(=O)N[C@@H](CC(C)C)C(=O)NCCCCCC(=O)N[C@@H](CCCCN)C(=O)N[C@@H](CCCCN)C(=O)N[C@@H](CCCCN)C(=O)N[C@@H](CCCCN)C(=O)N[C@@H](CCCCN)C(=O)N[C@@H](CCCCN)C(=O)N[C@@H](CCCCN)C(=O)N[C@@H](CCCCN)C(=O)N[C@@H](CCCCN)C(=O)N[C@@H](CCCCN)C(N)=O,MALDI-TOF MS,mouse serum,37 °C,,time to complete degradation,≤ 1 h
CC[C@H](C)[C@H](NC(=O)[C@H](CC(C)C)NC(=O)[C@H](Cc1c[nH]c2ccccc12)NC(=O)[C@H](C)NC(=O)[C@@H](NC(=O)[C@H](Cc1ccccc1)NC(=O)[C@H](CC(=O)O)NC(=O)[C@H](CCCNC(=N)N)NC(=O)[C@H](C)NC(=O)[C@H](C)NC(=O)[C@H](CC(C)C)NC(=O)[C@H](C)NC(=O)[C@H](CC(=O)O)NC(=O)[C@H](CC(C)C)NC(=O)[C@@H](NC(=O)[C@@H](NC(=O)[C@H](C)NC(=O)[C@H](CC(C)C)NC(=O)[C@H](CCC(=O)O)NC(=O)[C@H](CO)NC(=O)[C@H](CO)NC(=O)[C@H](Cc1ccccc1)NC(=O)[C@@H](NC(=O)CNC(=O)[C@H](CCC(=O)O)NC(=O)CNC(=O)[C@@H](N)Cc1cnc[nH]1)[C@@H](C)O)[C@@H](C)O)[C@@H](C)CC)[C@@H](C)CC)C(=O)N[C@@H](C)C(=O)N[C@H](C(=O)N[C@@H](CCCCN)C(=O)N[C@H](C(=O)N[C@H](C(=O)N[C@@H](CC(=O)O)C(=O)N[C@@H](CCCCN)C(=O)N[C@@H](CCCCN)C(=O)N[C@@H](CCCCN)C(=O)N[C@@H](CCCCN)C(=O)N[C@@H](CCCCN)C(=O)N[C@@H](CCCCN)C(N)=O)[C@@H](C)O)[C@@H](C)CC)[C@@H](C)O,,"healthy humans, plasma","subcutaneous, 5 mg once weekly, 6 doses, day 36, geometric mean",,AUC(0-tau),0.106 µM·h
NCCCC(=O)OCC(=O)c1ccc(O)c(OC(F)(F)F)c1.O=C(O)C(F)(F)F,"photolysis, measured: disappearance of compound",aqueous HEPES buffer with LiClO4,pH 8.2,,quantum yield,0.02

# For quick reference, copied from above:
Structure (SMILES),assay,test system,conditions,how to read,quantity,value
CC(C)(C)NCC(SS(=O)(=O)O)c1ccccc1 (stereo not shown),,mouse hepatocytes,unit not given,relative to: hepatocyte over total microsomal clearance,hepatocyte over microsomal clearance,> 20
CCCCCCCCCCCCCCCCCC(=O)N[C@@H](CCCCN)C(=O)N[C@@H](CCCCN)C(=O)N[C@@H](CCCCN)C(=O)N[C@@H](CCCCN)C(=O)N[C@@H](CCCCN)C(N)=O,dynamic light scattering,self-assembled micelles,25 °C,,hydrodynamic radius,~166 nm
CCCC[C@H](NC(=O)CNC(=O)CNC(=O)CN1CCN(CC(=O)O)CCN(CC(=O)O)CC1)C(=O)N[C@H]1CC(=O)NCCCC[C@@H](C(N)=O)NC(=O)[C@H](Cc2c[nH]c3ccccc23)NC(=O)[C@H](CCCNC(=N)N)NC(=O)[C@@H](Cc2ccccc2)NC(=O)[C@H](Cc2c[nH]cn2)NC1=O [copper-64 labelled],,"female C57 mouse, B16/F1 melanoma","intravenous, 0.037 MBq, 2 h",relative to: tumour over heart,uptake ratio,51.6
CC(C)[C@H](NC(=O)[C@@H]1CCCN1C(=O)[C@H](CCCNC(=N)N)NC(=O)[C@H](CS)NC(=O)[C@H](Cc1c[nH]c2ccccc12)NC(=O)[C@H](CCCNC(=N)N)NC(=O)[C@@H](Cc1ccccc1)NC(=O)[C@H](Cc1c[nH]cn1)NC(=O)[C@H](CCC(=O)O)NC(=O)[C@H](CS)NC(=O)[C@H](CS)NC(=O)CNC(=O)[C@@H]1CC(=O)N[C@@H](CCCNC(=N)N)C(=O)NCC(=O)N[C@@H](CC(=O)O)C(=O)N[C@H](Cc2ccc(O)cc2)C(=O)N1)C(N)=O [technetium-99m labelled],,"C57 mouse, female, B16/F1 melanoma","intravenous, 0.037 MBq, 24 h",relative to: tumour over muscle,tumour to tissue ratio,18.5
Oc1ccc2ccccc2c1/N=N/c1ccc(/N=N/c2ccccc2)cc1,,rat whole blood QC samples,"5.0 µg/L, 4 h, room temperature, short-term stability",,measured concentration,5.13 µg/L
